Experimental data gathered from unrelated publications.
Compare with care: the assays were run in different laboratories. ± gives the spread as reported.

`CC[C@H](C)[C@H](NC(=O)[C@H](CC(C)C)NC(=O)[C@@H](NC(=O)[C@@H](NC(=O)[C@H](CC(C)C)NC(=O)[C@H](CCCCN)NC(=O)[C@@H](N)CCCCN)[C@@H](C)CC)[C@@H](C)O)C(=O)N[C@@H](Cc1ccccc1)C(=O)N[C@@H](CCCCN)C(=O)N[C@@H](CCCCN)C(=O)N[C@H](C(=O)N[C@@H](CCCNC(=N)N)C(=O)N[C@@H](CCC(=O)O)C(=O)N[C@@H](CCCCN)C(=O)N[C@@H](CCCCN)C(=O)N[C@@H](CCCCN)C(=O)N[C@@H](CCC(=O)O)C(=O)N[C@@H](CS)C(=O)N[C@@H](CC(C)C)C(=O)N[C@H](C(=O)O)C(C)C)[C@@H](C)O` — result for “decay time constant”: 8.8 ± 0.5 ms (TTX-sensitive sodium channel (mouse); resurgent sodium current, open-channel blocker, whole-cell patch clamp; mouse hippocampal CA3 neurons; 200 µM intracellular, 22 °C, step to +30 mV, 10 ms, with: repolarisation to -30 mV).
`Cn1ccn2cc(C(=O)NCc3ccc(F)cc3F)c(=O)c(O)c2c1=O` gave an EC50 of 6.8 ± 0.4 nM (human immunodeficiency virus 1; single-round vector infection; integrase R263K).
`Cc1cc(/C=C/C#N)cc(C)c1Nc1nc(Nc2ccc(C#N)cc2)ncc1N` has an EC50 of 1.3 ± 0.6 nM (HIV-1; viral replication, single-round infection; RT mutant K101E/M184I).
The IC50 of `C=C(C)C[C@H](OC)[C@H](O)C(=O)N[C@@H](OC)[C@@H]1CC(=O)C(C)(C)[C@@H](C[C@H](O)[C@@H](C)[C@H]2Cc3c(C)c(O)cc(O)c3C(=O)O2)O1` is reported as 3 nM (HCT-116; cell growth or viability).
`COc1ccc(-c2cnnn2-c2cc(OC)c(OC)c(OC)c2)cc1N` gave an EC50 of 4.76 ± 0.5 nM (HeLa; cytotoxicity, nuclei counting; 24 h).
The inhibition of `CSCC[C@@H]1NC(=O)CNC(=O)[C@H](CCC(=O)O)NC(=O)[C@@H]2CSSC[C@H](NC(=O)[C@@H](N)Cc3ccc(O)cc3)C(=O)N[C@@H](CCC(N)=O)C(=O)N[C@@H](CCCCN)C(=O)N[C@@H](Cc3c[nH]c4ccccc34)C(=O)N[C@@H](CCSC)C(=O)N[C@@H](Cc3c[nH]c4ccccc34)C(=O)N[C@@H]([C@@H](C)O)C(=O)N[C@H]3CSSC[C@H](NC(=O)[C@H](C(C)C)NC1=O)C(=O)N[C@@H](CCCNC(=N)N)C(=O)N[C@@H](CC(C)C)C(=O)N[C@@H](Cc1c[nH]c4ccccc14)C(=O)N[C@H](C(=O)N[C@@H](CCCCN)C(=O)N[C@@H](CCCCN)C(=O)N[C@@H](CCCCN)C(=O)N[C@@H](CC(C)C)C(=O)N[C@@H](Cc1c[nH]c4ccccc14)C(=O)O)CSSC[C@H](NC(=O)[C@H](CCCCN)NC(=O)[C@H](CCCNC(=N)N)NC(=O)[C@H](CCC(=O)O)NC(=O)[C@H](CO)NC(=O)[C@H](CC(=O)O)NC3=O)C(=O)N2` is reported as 25.5 ± 12.1% (ND7/23; peak TTX-sensitive sodium current; 0.003 µM, 2 peak).
For `Cc1cc(/C=C/C#N)cc(C)c1-n1cnc2cnc(Nc3ccc(C#N)cc3)nc21`, the EC50 was 0.9 ± 0.1 nM (HIV-1; viral replication, single-round infection; RT mutant K101E/M184V).
Under “low membrane potential mitochondria”, `CC[C@H](C)[C@H](NC(=O)CNC(=O)[C@@H](NC(=O)[C@H](CCCNC(=N)N)NC(=O)[C@H](CO)NC(=O)[C@H](Cc1c[nH]cn1)NC(=O)[C@H](CCCNC(=N)N)NC(=O)[C@H](CS)NC(=O)CNC(=O)[C@@H](NC(=O)[C@H](CCCNC(=N)N)NC(=O)[C@H](Cc1ccccc1)NC(=O)[C@H](Cc1c[nH]cn1)NC(=O)[C@@H](NC(=O)[C@H](Cc1ccccc1)NC(=O)[C@H](CC(C)C)NC(=O)[C@H](CC(C)C)NC(=O)[C@H](CCC(N)=O)NC(=O)[C@H](CCC(N)=O)NC(=O)[C@H](CC(C)C)NC(=O)[C@@H](NC(=O)[C@H](CCCNC(=N)N)NC(=O)[C@@H](NC(=O)[C@H](CC(C)C)NC(=O)[C@H](C)NC(=O)[C@H](CCC(=O)O)NC(=O)[C@@H](NC(=O)CNC(=O)[C@@H](NC(=O)[C@H](Cc1c[nH]c2ccccc12)NC(=O)[C@@H](NC(=O)[C@@H](N)CC(=O)O)[C@@H](C)O)[C@@H](C)O)C(C)C)[C@@H](C)CC)[C@@H](C)CC)[C@@H](C)CC)[C@@H](C)CC)[C@@H](C)CC)C(=O)N[C@H](C(=O)N[C@@H](CCC(N)=O)C(=O)N[C@@H](CCC(N)=O)C(=O)N[C@@H](CCCNC(=N)N)C(=O)N[C@@H](CCCNC(=N)N)C(=O)N[C@H](C(=O)N[C@@H](CCCNC(=N)N)C(=O)N[C@@H](CC(N)=O)C(=O)NCC(=O)N[C@@H](C)C(=O)N[C@@H](CO)C(=O)N[C@@H](CCCCN)C(=O)N[C@@H](CO)C(=O)O)[C@@H](C)O)[C@@H](C)CC` is recorded as 65% (JC-1 flow cytometry; purified mouse mitochondria; 1 µM, 10 min).
Under “mean arterial pressure increase”, `CC(C)C[C@H](NC(=O)[C@@H]1CCCN1C(=O)[C@@H]1CCCN1C(=O)[C@H](CCCNC(=N)N)NC(=O)[C@H](CCCNC(=N)N)NC(=O)[C@H](CCCNC(=N)N)NC(=O)[C@H](CCC(N)=O)NC(=O)[C@H](CCCNC(=N)N)NC(=O)[C@H](CCCNC(=N)N)NC(=O)[C@H](CCCCN)NC(=O)[C@H](CCCCN)NC(=O)[C@H](CCCNC(=N)N)NC(=O)CNC(=O)[C@@H](N)Cc1ccc(O)cc1)C(=O)N[C@@H](CCCNC(=N)N)C(=O)N[C@@H](CCCCN)C(=O)N[C@@H](CCCCN)C(=O)N[C@@H](CCCCN)C(=O)N[C@@H](CCCCN)C(=O)N[C@@H](CCCCN)C(=O)N[C@@H](Cc1c[nH]cn1)C(N)=O` is recorded as no more than 18 mmHg (telemetry; mouse, awake; intraperitoneal, dose not given).
`CC[C@@H](C)[C@@H](NC(=O)[C@@H](CCCCN)NC(=O)[C@@H](CCCCN)NC(=O)[C@@H](CC(C)C)NC(=O)[C@@H](Cc1c[nH]c2ccccc12)NC(=O)CN)C(=O)NCC(=O)N[C@H](CCCCN)C(=O)N[C@H](CCCCN)C(=O)N[C@@H](C(=O)N[C@H](CCC(=O)O)C(=O)N[C@H](CCCNC(=N)N)C(=O)N[C@@H](C(=O)NCC(=O)N[C@H](CCC(N)=O)C(=O)N[C@H](Cc1c[nH]cn1)C(=O)N[C@@H](C(=O)N[C@H](CCCNC(=N)N)C(=O)N[C@H](CC(=O)O)C(=O)N[C@H](C)C(=O)N[C@@H](C(=O)N[C@@H](C(=O)N[C@H](CCC(N)=O)C(=O)N[C@@H](C(=O)N[C@@H](C(=O)NCC(=O)N[C@@H](C(=O)N[C@H](C)C(=O)N[C@H](CCC(N)=O)C(=O)N[C@H](CCC(N)=O)C(=O)N[C@H](C)C(=O)N[C@H](C)C(=O)N[C@H](CC(N)=O)C(=O)N[C@@H](C(=O)N[C@H](C)C(=O)N[C@H](C)C(=O)N[C@@H](C(=O)N[C@H](CC(C)C)C(=O)N[C@H](CCCCN)C(N)=O)[C@H](C)O)C(C)C)C(C)C)[C@H](C)CC)[C@H](C)O)[C@H](C)CC)[C@H](C)O)[C@H](C)O)C(C)C)[C@H](C)CC` gave an MIC of greater than 1020 µg/mL (Pseudomonas aeruginosa; isolate RKI 93/12, CAMHB).
`COCCCCCCn1ccn2cc(C(=O)NCc3ccc(F)cc3F)c(=O)c(O)c2c1=O` gave an EC50 of 15 ± 1.6 nM (human immunodeficiency virus 1; single-round vector infection; integrase N155H).
`Cc1ccc(NS(=O)(=O)c2c(C(=O)N3CCCCCC3)c(C)n(C)c2C)c(Cl)c1` has a relative infection of 0% (Monkeypox virus; Vero C1008, wild type; 3.33 µM, 72 h; reference: untreated).
The EC50 of `O=C(NCc1ccc(F)cc1F)c1cn2ccn(CCCCCO)c(=O)c2c(O)c1=O` is reported as 16.1 ± 1 nM (human immunodeficiency virus 1; single-round vector infection; integrase R263K).
With `Nc1ncnc2c1ncn2C1CCC(OC(C(=O)O)P(=O)(O)O)C1` (racemic) the fold resistance was 0.8 fold (HIV-1 reverse transcriptase K65R; enzyme activity, inhibitor; with: poly(rU)·oligo(dA), [3H]dATP; reference: mutant over wild type).
For `COCCn1ccn2cc(C(=O)NCc3ccc(F)cc3F)c(=O)c(O)c2c1=O`, the EC50 was 3.9 ± 0.8 nM (human immunodeficiency virus 1; single-round vector infection; integrase R263K).
`O=C(NC1CCN(c2ncnc3[nH]cnc23)CC1)c1cccc(NS(=O)(=O)c2ccc(C(F)(F)F)cc2)c1` gave an inhibition of 9.78% (monkeypox virus E1/E12; 3.125 µM).

A few entries again:
The IC50 of `C=C(C)C[C@H](OC)[C@H](O)C(=O)N[C@@H](OC)[C@@H]1CC(=O)C(C)(C)[C@@H](C[C@H](O)[C@@H](C)[C@H]2Cc3c(C)c(O)cc(O)c3C(=O)O2)O1` is reported as 3 nM (HCT-116; cell growth or viability).
The inhibition of `CSCC[C@@H]1NC(=O)CNC(=O)[C@H](CCC(=O)O)NC(=O)[C@@H]2CSSC[C@H](NC(=O)[C@@H](N)Cc3ccc(O)cc3)C(=O)N[C@@H](CCC(N)=O)C(=O)N[C@@H](CCCCN)C(=O)N[C@@H](Cc3c[nH]c4ccccc34)C(=O)N[C@@H](CCSC)C(=O)N[C@@H](Cc3c[nH]c4ccccc34)C(=O)N[C@@H]([C@@H](C)O)C(=O)N[C@H]3CSSC[C@H](NC(=O)[C@H](C(C)C)NC1=O)C(=O)N[C@@H](CCCNC(=N)N)C(=O)N[C@@H](CC(C)C)C(=O)N[C@@H](Cc1c[nH]c4ccccc14)C(=O)N[C@H](C(=O)N[C@@H](CCCCN)C(=O)N[C@@H](CCCCN)C(=O)N[C@@H](CCCCN)C(=O)N[C@@H](CC(C)C)C(=O)N[C@@H](Cc1c[nH]c4ccccc14)C(=O)O)CSSC[C@H](NC(=O)[C@H](CCCCN)NC(=O)[C@H](CCCNC(=N)N)NC(=O)[C@H](CCC(=O)O)NC(=O)[C@H](CO)NC(=O)[C@H](CC(=O)O)NC3=O)C(=O)N2` is reported as 25.5 ± 12.1% (ND7/23; peak TTX-sensitive sodium current; 0.003 µM, 2 peak).
